Experimental data pooled from the literature.
Protocols differ between the studies behind these lines. “And” joins repeats or separate records; there may be more than shown. ± marks the error that the study gave.

| SMILES | tested on | test | test system | conditions | scale | measurement | value |
| --- | --- | --- | --- | --- | --- | --- | --- |
| O=C(O)CCc1nc(-c2ccccc2)c(-c2ccccc2)o1 | COS-7 | – | – | 100 µM, 24 h, 0.1% DMSO, unit not given | reference: control | confluence | 0.96 ± 0.07 |
| C[C@H](O)C(=O)C1=Nc2c(nc(N)[nH]c2=O)NC1 | – | – | healthy human volunteers | oral, 20 mg/kg, 4 days, monotherapy | reference: subjects | severe TEAE incidence | 0% |
| CCc1cc(C(=O)NC)c2nccc(N3CCc4c(cc(Cn5ccnc5)cc4-c4cn(C)nc4C(F)(F)F)C3=O)c2c1 | – | – | Sprague Dawley rats | oral, 100 mg/kg twice daily, 7 days | reference: vehicle | blood Neut change | -54.3% |
| FC(F)(F)c1ccc(CNc2ccc(Cc3c[nH]c4ncc(Cl)cc34)cn2)cn1 | – | item: Nausea | patients with advanced solid tumours, non-TGCT cohort | oral, 1000 mg/day, grade 3 or higher | – | treatment-related adverse events | 0% |
| CCOc1c([C@H](C)n2nc(C)c3c(N)ncnc32)cc(Cl)c(F)c1[C@@H]1CNC(=O)C1 | – | item: QTcF change ≤30 ms | previously treated B-cell malignancy | oral, 10 mg once daily, overall population | reference: baseline | ECG observations | 100% |
| Cc1c(C(=O)O)ccc2c3n(nc12)[C@@H]1[C@H](C3)N(CC2CC2)[C@@]2(C(=O)Nc3cc(Cl)ccc32)[C@H]1c1cccc(Cl)c1F | – | – | female BALB/c nude mice, SJSA-1 xenograft, plasma | oral, 1 mg/kg twice daily, 7 h | – | plasma concentration | 0.509 µM |
| CCn1cc(C(=O)O)c(=O)c2cc(F)c(N3CCNCC3)cc21 | – | starch gel membrane permeability | Gram-negative envelope surrogate | 200 µM, 60 min, pH 7.4 | – | amount permeated | 3.64 nmol |
| Cc1onc(-c2ccccc2)c1-c1ccc(S(N)(=O)=O)cc1 | COS-7 | – | – | 50 µM, 24 h, 0.1% DMSO, unit not given | reference: vehicle control | confluence | 0.93 ± 0.01 |
| C[C@@H](c1nc(-c2ccc(C#N)cc2)cs1)[C@](O)(Cn1cncn1)c1cc(F)ccc1F | – | headache | human | oral, dose not given, added: ethinyl estradiol/norethindrone | – | subjects with adverse event | 8.7% |
| CCOC(=O)c1cc(O)c(O)c(O)c1 | – | – | human plasma | mean | – | plasma concentration | 0.0053 µM |
| C[C@@H](N)C1CCN(S(=O)(=O)c2cccc3cnccc23)CC1 | – | – | healthy volunteers | 75 mg, fasted | – | participants with serious TEAEs | 0% |
| Cn1c(=O)c2c(ncn2C)n(C)c1=O | – | – | human, both sexes, cerebrospinal fluid | – | – | samples above LOQ | 97.8% |
| CCCCCNC(=O)N1CCC(CN(Cc2ccc(Cl)cc2)Cc2ccc([N+](=O)[O-])s2)C1 (stereo not drawn) | – | – | C57BL/6 mice | 100 mg/kg twice daily, 7 days | – | haemoglobin | 11.3 ± 1.2 g/dL |
| O=C(O)c1cc(O)c2c(c1)C(=O)c1cccc(O)c1C2=O | HepaRG co-cultured with HK-2 | MTT | – | 266.67 µM, 24 h | reference: untreated control | cell viability | 58.3 ± 4.87% |
| O=C(COc1ccc(Cl)cc1)NC12CC(c3nnc([C@H]4C[C@@H](OC(F)(F)F)C4)o3)(C1)C2 | – | – | human both sexes | oral, 145 mg once daily, 14 days | – | drug-related TEAE participants | 100% |
| CC1(C)NC(=O)Cn2c1nc(-c1ccc(F)cc1)c2Nc1ccc(Cl)c(F)c1 | – | PAMPA | – | – | – | absorbed fraction | 97.1% |
| O=C(O)c1cc(O)c2c(c1)C(=O)c1cccc(O[C@@H]3O[C@H](CO)[C@@H](O)[C@H](O)[C@H]3O)c1C2=O | HepaRG co-cultured with HK-2 | MTT | – | 266.67 µM, 24 h | reference: untreated control | cell viability | 99.1 ± 8.96% |
| CC1CCNc2c(C(=O)NC/C=C/S(C)(=O)=O)cccc21 (stereo not drawn) | – | – | uninfected mouse, serum | 300 mg/kg | – | serum TBILI | 0.43 mg/dL and 0.38 mg/dL |
| O=C(O)CCC(=O)O.[2H]C([2H])([2H])Oc1cc(C)c2[nH]ccc2c1CN1CC[C@@H](C2CC2)C[C@H]1c1ccc(C(=O)O)cc1 | – | – | healthy Chinese subjects | 50 mg, single ascending dose | – | TEAE decreased fibrinogen | 0% |
| Cc1c(-c2ccc(N3CCc4cccc(C(=O)Nc5nc6ccccc6s5)c4C3)nc2C(=O)O)cnn1CC12CC3(C)CC(C)(C1)CC(OCCNCC[C@H](O)CO)(C3)C2 | – | – | beagle dog, male, anaesthetised | intravenous infusion, 0.3 mg/kg/min, 30 min | reference: vehicle | mean arterial pressure change | -18% |
| Cc1c2oc3c(C)ccc(C(=O)N[C@@H]4C(=O)N[C@H](C(C)C)C(=O)N5CCC[C@H]5C(=O)N(C)CC(=O)N(C)[C@@H](C(C)C)C(=O)O[C@@H]4C)c3nc-2c(C(=O)N[C@@H]2C(=O)N[C@H](C(C)C)C(=O)N3CCC[C@H]3C(=O)N(C)CC(=O)N(C)[C@@H](C(C)C)C(=O)O[C@@H]2C)c(N)c1=O | – | – | children with cancer, plasma | dose not given, 15 min | – | minimum plasma concentration | 5.3 µg/L |
| Cc1cccc(CNC(=O)c2cn(CCNC(=O)c3ccccc3Sc3c([N+](=O)[O-])ncn3C)c3cc4c(cc3c2=O)OC(F)(F)O4)n1 | – | – | Sprague-Dawley rat, male, plasma | intramuscular, 10 mg/kg of parent drug | – | Tmax | 4.98 min |
| CCCCOc1nc(N)c2c(n1)N(Cc1cccc(CN3CCCC3)c1)CC(=O)N2 | – | – | people with HIV | added: vorinostat and cobicistat | – | tolerability | not toxic |
| COc1ccc2c3c([nH]c2c1)[C@H](CC(C)C)N1C(=O)[C@H](CC(=O)NC(C)C)NC(=O)[C@@H]1C3 | – | – | wild-type mouse, male, serum | oral, 100 mg/kg, 0.5 h | – | serum concentration | 43.3 µM and 32.9 µM and 24.6 µM |

For quick reference, copied from above:
| SMILES | tested on | test | test system | conditions | scale | measurement | value |
| --- | --- | --- | --- | --- | --- | --- | --- |
| Cc1c(-c2ccc(N3CCc4cccc(C(=O)Nc5nc6ccccc6s5)c4C3)nc2C(=O)O)cnn1CC12CC3(C)CC(C)(C1)CC(OCCNCC[C@H](O)CO)(C3)C2 | – | – | beagle dog, male, anaesthetised | intravenous infusion, 0.3 mg/kg/min, 30 min | reference: vehicle | mean arterial pressure change | -18% |
| CCOC(=O)c1cc(O)c(O)c(O)c1 | – | – | human plasma | mean | – | plasma concentration | 0.0053 µM |
